Measurements of several laboratories.
± gives the spread as reported.

CCc1c(C(=O)NCCc2ccc(N3CCCCC3)cc2)[nH]c2ccc(Cl)cc12 has an IC50 of 0.213 µM (cannabinoid receptor 1; ERK phosphorylation, negative allosteric modulator; mean over cells and agonists).
With Cn1sccc1=O the IC50 was 3.63 µM (cysteine peptide Ac-RFAACAA-COOH; peptide depletion, DPRA RapidFire-MS/MS; 24 h, pH 7.5, room temperature, together with: 5.0 µM cysteine peptide).
NC[C@H]1O[C@H](O[C@H]2[C@H](O)[C@@H](O[C@H]3O[C@H](CO)[C@@H](O)[C@H](N)[C@H]3O)[C@H](N)C[C@@H]2N)[C@H](N)C[C@@H]1O gave an IC50 of 2.3 µM (Mycobacterium smegmatis 70S ribosome; phenylalanine incorporation, inhibitor, cell-free translation; hybrid ribosomes 0.25 µM; 60 min, 37 °C, together with: (UUU)12 mRNA).
Cc1cc(O)cc2c1O[C@](C)(CCC[C@H](C)CCC[C@H](C)CCCC(C)C)CC2 gave an IC50 of ~25 µM (COX-1 (rat); thromboxane B2 formation; washed rat platelets; 25 min pretreatment, together with: collagen 20 µg/mL).
The IC50 of COC[C@@H](NC(C)=O)C(=O)NCc1ccc(-c2cccc(F)c2)cc1 is reported as 2.2 ± 0.9 µM (voltage-gated sodium channel; peak sodium current, inhibitor, whole-cell patch clamp; CAD; 0 mV from -80 mV holding).
N=C(N)NN=C(/C=C/c1ccc([N+](=O)[O-])o1)/C=C/c1ccc([N+](=O)[O-])o1 gave an IC50 of 23.4 µM (ribosome, P. aeruginosa; poly-Phe synthesis, aminoacylation-translation; Pseudomonas aeruginosa).
Cc1cc(Nc2nc(N[C@@H](C)c3ncc(F)cn3)ncc2Cl)n[nH]1 has an IC50 of 0.25 µM (Stat5b, human; reporter gene, inhibitor, luciferase reporter; PC-3; 1 h pretreatment, together with: human prolactin 10 nM, 16 h).
With O=C(Nc1cccnn1)N1CCN([C@@H]2CCOc3cc(C(F)(F)F)ccc32)CC1 the IC50 was 14 µM (sigma receptor, non-selective; binding).
For `sodium pervanadate`, the IC50 was 0.1 µM (total protein tyrosine phosphatases (human); enzyme activity, inhibitor, capillary electrophoresis; A-431 cell lysate; 10 min preincubation).
O=[N+]([O-])c1ccc(Cl)c([N+](=O)[O-])c1 gave an IC50 of 319 µM (cysteine peptide Ac-RFAACAA-COOH; peptide depletion, DPRA RapidFire-MS/MS; 24 h, pH 7.5, room temperature, together with: 5.0 µM cysteine peptide).
Cc1[nH]ccc2c1[nH]c1cc(=O)ccc12 has an IC50 of 5.2 µM (hedgehog pathway; alkaline phosphatase activity, inhibitor; C3H10T1/2; 5 days, together with: Shh).
C/C=C1\NC(=O)[C@@H](NC(=O)[C@@H](NC(=O)C/C(=C/Cl)CC)C(C)C)[C@@H](C)OC(=O)[C@H](C(C)C)NC(=O)[C@H](Cc2ccc(O)cc2)N(C)C(=O)[C@H](Cc2ccccc2)N2C(=O)[C@H](CC[C@H]2O)NC1=O gave an IC50 of > 20 µM (bovine trypsin; enzyme activity, inhibitor; 30 min, pH 7.4, 22 °C, together with: Z-Leu-Arg-Arg-AMC).
For Cc1cc(C)cc(C(=O)N(NC(=O)c2ccc3c(c2C)CCCO3)C(C)(C)C)c1, the IC50 was > 1 µg/mL (mAb-19F2 (BALB/c mouse monoclonal antibody); antibody binding, indirect competitive ELISA).
NC[C@@H]1O[C@H](O[C@H]2[C@@H](O)[C@H](O[C@@H]3[C@@H](O)[C@H](N)C[C@H](N)[C@H]3O[C@H]3O[C@H](CO)C[C@H](O)[C@H]3N)O[C@@H]2CO)[C@H](N)[C@@H](O)[C@@H]1O gave an IC50 of 0.05 ± 0.01 µg/mL (Mycobacterium smegmatis ribosome wild type; translation, cell-free luciferase synthesis).
With O=[N+]([O-])/N=C1\NCCN1Cc1cnc(Cl)s1 the IC50 was > 1 µg/mL (mAb-19F2 (BALB/c mouse monoclonal antibody); antibody binding, indirect competitive ELISA).
For NC[C@@H]1O[C@H](O[C@H]2[C@@H](O)[C@H](O[C@@H]3[C@@H](O)[C@H](N)C[C@H](N)[C@H]3O[C@H]3O[C@@H]4CO[C@@H](CCc5ccccc5)O[C@H]4[C@H](O)[C@H]3N)O[C@@H]2CO)[C@H](N)[C@@H](O)[C@@H]1O, the IC50 was 3.8 ± 2.4 µg/mL (Mycobacterium smegmatis ribosome A1408G; translation, cell-free luciferase synthesis).
O=C(NC(=O)c1c(F)cccc1F)Nc1cc(Cl)c(OC(F)(F)C(F)F)c(Cl)c1 has an IC50 of > 1 µg/mL (mAb-19F2 (BALB/c mouse monoclonal antibody); antibody binding, indirect competitive ELISA).
`ikarugamycin` has an IC50 of 14.3 µM (androgen receptor; reporter gene, antagonist, PSA promoter luciferase; LAPC4; 24 h).
CC[C@H](C)[C@@H]1C(=O)O[C@H]1C(=O)N[C@@H](Cc1ccccc1)C(=O)N[C@@H](Cc1ccccc1)C(=O)OCc1ccccc1 has an IC50 of 2.71 ± 0.13 µM (human proteasome β2 subunit).
For NC[C@@H]1O[C@H](O[C@H]2[C@@H](O)[C@H](O[C@@H]3[C@@H](O)[C@H](N)C[C@H](N)[C@H]3O[C@H]3O[C@H](CO)[C@@H](O)[C@H](O)[C@H]3N)O[C@@H]2CO)[C@H](N)[C@@H](O)[C@@H]1O, the IC50 was 0.26 ± 0.04 µg/mL (Mycobacterium smegmatis ribosome A1408G; translation, cell-free luciferase synthesis).
CCN[C@@H]1C[C@H](N)[C@@H](O[C@H]2OC(CN)=CC[C@H]2N)[C@H](O)[C@H]1O[C@H]1OC[C@](C)(O)[C@H](NC)[C@H]1O has an IC50 of 1.1 µM (Mycobacterium smegmatis 70S ribosome; phenylalanine incorporation, inhibitor, cell-free translation; hybrid ribosomes 0.25 µM; 60 min, 37 °C, together with: (UUU)12 mRNA).
With CC[C@H](C)[C@@H]1C(=O)O[C@H]1C(=O)N[C@H](C(=O)N[C@H](C(=O)OCc1ccccc1)C(C)(C)C)C(C)(C)C the IC50 was 3.52 ± 0.109 µM (human proteasome β2 subunit).
The IC50 of Cc1cc2c(C(C)C)c(O)c(O)c(C=O)c2c(O)c1-c1c(C)cc2c(C(C)C)c(O)c(O)c(C=O)c2c1O is reported as 10 µM (class IIb HDAC; enzyme activity; bovine heart lysate).
The IC50 of CC[C@H](C)[C@@H]1C(=O)O[C@H]1C(=O)N[C@@H](COCc1ccccc1)C(=O)N[C@H](C(=O)OCc1ccccc1)C(C)C is reported as 0.759 ± 0.02 µM (human proteasome β2 subunit).
O=C(NC(=O)c1ccccc1Cl)Nc1ccc(OC(F)(F)F)cc1 gave an IC50 of > 1 µg/mL (mAb-19F2 (BALB/c mouse monoclonal antibody); antibody binding, indirect competitive ELISA).
CC[C@H](C)[C@@H]1C(=O)O[C@H]1C(=O)N[C@H](C(=O)N[C@H](C(=O)OCc1ccccc1)C(C)C)C(C)(C)C has an IC50 of 5.05 ± 0.688 µM (human proteasome β2 subunit).
For NCC1OC(OC2C(CO)OC(OC3C(O)C(N)CC(N)C3OC3OC(CO)C(OCCCc4ccccc4)C(O)C3N)C2O)C(N)C(O)C1O (stereo not drawn), the IC50 was 14.5 ± 5.77 µg/mL (Mycobacterium smegmatis ribosome A1408G; translation, cell-free luciferase synthesis).
With FC(F)(F)c1ccc(OCCCOc2c(Cl)cc(OCC=C(Cl)Cl)cc2Cl)nc1 the IC50 was > 1 µg/mL (mAb-19F2 (BALB/c mouse monoclonal antibody); antibody binding, indirect competitive ELISA).
For C[C@H](NC(=O)C1CCNCC1)C(=O)Nc1ccc2c(c1)C(=O)c1ccc(NC(=O)[C@H](C)NC(=O)C3CCNCC3)cc1C2=O, the IC50 was 24.9 ± 2.2 µM (HIV-1 nucleocapsid protein; cTAR DNA melting, inhibitor).
CC(=O)C=Cc1ccccc1 has an IC50 of 21.2 µM (cysteine peptide Ac-RFAACAA-COOH; peptide depletion, DPRA RapidFire-MS/MS; 24 h, pH 7.5, room temperature, together with: 5.0 µM cysteine peptide).
CC[C@H](C)[C@@H]1C(=O)O[C@H]1C(=O)N[C@H](C(=O)N[C@H](C(=O)OCc1ccccc1)C(C)(C)C)C(C)C gave an IC50 of 3.75 ± 0.263 µM (human proteasome β2 subunit).
The IC50 of COC[C@H](NC(C)=O)C(=O)NCc1ccc(OCc2cccc(F)c2)cc1 is reported as 42.9 ± 1.4 µM (voltage-gated sodium channel; peak sodium current, inhibitor, whole-cell patch clamp; CAD; 0 mV from -80 mV holding).
The IC50 of O=C1C=CC(=O)C=C1 is reported as 4.84 µM (cysteine peptide Ac-RFAACAA-COOH; peptide depletion, DPRA RapidFire-MS/MS; 24 h, pH 7.5, room temperature, together with: 5.0 µM cysteine peptide).
For Oc1cccc2ccccc12, the IC50 was 0.0125 µg/mL (anti-1-naphthol monoclonal antibody; antibody binding, competitive indirect ELISA; pH 6.4).
With N=C(N)NCCC[C@H](N)C(=O)O the IC50 was 3300 µM (neuronal nicotinic acetylcholine receptor rat; ACh-evoked current, antagonist, whole-cell voltage clamp; rat intracardiac neurons; holding -90 mV, together with: ACh 100 µM).
With CC[C@H](C)[C@@H]1C(=O)O[C@H]1C(=O)N[C@H](C(=O)N[C@@H](Cc1ccccc1)C(=O)OCc1ccccc1)C(C)C the IC50 was 1.78 ± 0.222 µM (human proteasome β2 subunit).
C/C=C1\NC(=O)[C@@H](NC(=O)[C@@H](NC(=O)[C@H](C)NC(=O)C/C(C)=C/Cl)C(C)C)[C@@H](C)OC(=O)[C@H](C(C)C)NC(=O)[C@H](Cc2ccc(O)cc2)N(C)C(=O)[C@H](Cc2ccccc2)N2C(=O)[C@H](CC[C@H]2O)NC1=O has an IC50 of > 20 µM (bovine trypsin; enzyme activity, inhibitor; 30 min, pH 7.4, 22 °C, together with: Z-Leu-Arg-Arg-AMC).
CC(C)[C@H](NC(=O)[C@@H]1OC(=O)[C@H]1C1CCCC1)C(=O)N[C@H](C(=O)OCc1ccccc1)C(C)C gave an IC50 of 7.47 ± 0.748 µM (human proteasome β2 subunit).
With O=C/C=C/c1ccccc1 the IC50 was 1050 µM (cysteine peptide Ac-RFAACAA-COOH; peptide depletion, DPRA RapidFire-MS/MS; 24 h, pH 7.5, room temperature, together with: 5.0 µM cysteine peptide).
CN[C@@](C)(C[18F])C(=O)O gave a tissue uptake of 0.4 ± 0.03 %ID/g (SCID mouse MDA-MB-468 xenograft, brain; 15 min, post injection).
CC(C)[C@H](NC(=O)[C@@H]1OC(=O)[C@H]1C1CC1)C(=O)N[C@H](C(=O)OCc1ccccc1)C(C)C gave an IC50 of 3.19 ± 0.164 µM (human proteasome β2 subunit).
With Oc1ccc(/C=C/c2cc(O)cc(O)c2)cc1 the IC50 was 2.66 µM (human HDAC class I/II; enzyme activity, inhibitor, HDAC-Glo I/II; HCT-116).

Some of these lines once more:
The IC50 of COC[C@@H](NC(C)=O)C(=O)NCc1ccc(-c2cccc(F)c2)cc1 is reported as 2.2 ± 0.9 µM (voltage-gated sodium channel; peak sodium current, inhibitor, whole-cell patch clamp; CAD; 0 mV from -80 mV holding).
CC[C@H](C)[C@@H]1C(=O)O[C@H]1C(=O)N[C@@H](Cc1ccccc1)C(=O)N[C@@H](Cc1ccccc1)C(=O)OCc1ccccc1 has an IC50 of 2.71 ± 0.13 µM (human proteasome β2 subunit).
For `sodium pervanadate`, the IC50 was 0.1 µM (total protein tyrosine phosphatases (human); enzyme activity, inhibitor, capillary electrophoresis; A-431 cell lysate; 10 min preincubation).
CCN[C@@H]1C[C@H](N)[C@@H](O[C@H]2OC(CN)=CC[C@H]2N)[C@H](O)[C@H]1O[C@H]1OC[C@](C)(O)[C@H](NC)[C@H]1O has an IC50 of 1.1 µM (Mycobacterium smegmatis 70S ribosome; phenylalanine incorporation, inhibitor, cell-free translation; hybrid ribosomes 0.25 µM; 60 min, 37 °C, together with: (UUU)12 mRNA).
C/C=C1\NC(=O)[C@@H](NC(=O)[C@@H](NC(=O)C/C(=C/Cl)CC)C(C)C)[C@@H](C)OC(=O)[C@H](C(C)C)NC(=O)[C@H](Cc2ccc(O)cc2)N(C)C(=O)[C@H](Cc2ccccc2)N2C(=O)[C@H](CC[C@H]2O)NC1=O gave an IC50 of > 20 µM (bovine trypsin; enzyme activity, inhibitor; 30 min, pH 7.4, 22 °C, together with: Z-Leu-Arg-Arg-AMC).
